Published values gathered from unrelated publications.
Parts stem from different laboratories: compare values within a part only. Changes are numbered by the printed parent chain.
Chain of UniProt P62837 (whole entry, looked up): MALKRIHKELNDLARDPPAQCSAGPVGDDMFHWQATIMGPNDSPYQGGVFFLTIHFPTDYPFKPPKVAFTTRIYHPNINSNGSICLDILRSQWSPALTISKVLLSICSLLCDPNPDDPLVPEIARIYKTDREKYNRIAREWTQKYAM
Chain of UniProt Q8WVD5 (whole entry, looked up): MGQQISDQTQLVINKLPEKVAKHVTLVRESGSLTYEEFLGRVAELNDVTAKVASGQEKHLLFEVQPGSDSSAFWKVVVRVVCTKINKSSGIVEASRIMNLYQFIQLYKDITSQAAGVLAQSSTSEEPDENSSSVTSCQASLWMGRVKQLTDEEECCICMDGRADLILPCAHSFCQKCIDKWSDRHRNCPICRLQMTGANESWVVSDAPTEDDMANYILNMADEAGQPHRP

Sample 1
Target: TAR DNA-binding protein 43, full length, His tag (TARDBP, Homo sapiens, UniProt Q13148, residues 1-414)
Technique: RNA Bind-n-Seq
Molecule type: RNA
Matrix: in vitro
Concentration: 20 nM
Setting: 6-mer, flanks averaged, single round
With: 150 mM KCl
Reference: input library
Reading: higher = stronger binding
Under “6-mer enrichment (R)”, `CCCCUA` is recorded as 0.666.
For `CCGCAU`, “6-mer enrichment (R)” read 0.661.
`CGGCCU`: “6-mer enrichment (R)” 0.817.
For `CGAUAU`, “6-mer enrichment (R)” read 0.593.
For `AUAUGG`, “6-mer enrichment (R)” read 0.95.
`AACCAG` — result for “6-mer enrichment (R)”: 0.743.
Under “6-mer enrichment (R)”, `UUCCUU` is recorded as 0.591.
Under “6-mer enrichment (R)”, `UUUGAG` is recorded as 0.883.

Sample 2
Target: RNA binding protein fox-1 homolog 2, RRM domain, GST-SBP tag (RBFOX2, Homo sapiens, UniProt O43251-10, residues 100-194)
Technique: RNA Bind-n-Seq
Molecule type: RNA
Matrix: in vitro
Concentration: 365 nM
Setting: natural RNA segment, single round, ends assumed
Reference: no-protein control
Reading: higher = stronger binding
Construct (chain): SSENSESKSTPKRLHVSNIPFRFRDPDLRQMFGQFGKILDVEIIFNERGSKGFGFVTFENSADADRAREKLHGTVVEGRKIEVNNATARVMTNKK
`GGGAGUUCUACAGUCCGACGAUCAAGUGAAUGUUGUCUUUGGUCACAAUGCCUUUAAGUGUAGUUGUAGCUCAGAACUUUUUUUUUAGUAUUCAUAUCUAUUUACAUCUGUGUUUCCCAACAGAAGACAACUUUGGAAUUCUCGGGUGCCAA` — result for “RBNS enrichment (R)”: 0.948.
`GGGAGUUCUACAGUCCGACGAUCUAUGUGACAGUAGGAAGGAAUGGUUUCCCCUAACAAGCCCAAUGCACUGGUCUGACUUUAUAAAUUAUUUAAUAAAAUGAACUAUUAUCAAAUAAAACGUAUGAAUCAGUUGGAAUUCUCGGGUGCCAA` — result for “RBNS enrichment (R)”: 0.731.
`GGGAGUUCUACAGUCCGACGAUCUCCUCCUUUUGGAGUCAGGCUCUAUGCCUAAACAGACUCAACAGAACCUGCACAUGGAGGACACAUCCAAUACCAGUUCUCCACAUUCCAACCUCUCUCUCUCUCUCUCAUGGAAUUCUCGGGUGCCAA`: “RBNS enrichment (R)” 1.26.
`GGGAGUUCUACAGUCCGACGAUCUGGCCCCUGCCCUCUGCCCUUUUGCCUGUCCUCAGGCCGCUGGAACAAAGGAAGGACAGCUCAUUCCUCAUGGGCGAUCACUCCGCAUCUAUAGGGUCGAGCCUAGGGGAUGGAAUUCUCGGGUGCCAA` — result for “RBNS enrichment (R)”: 0.615.
`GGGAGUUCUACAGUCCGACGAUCAAACAUUUCCUAAAGUUGAAGCAAUAGCUUCGUAGAUUCUUGGUUACUUUAUUUUUUUUAAUGCUUUACAUUUGAUACAACUAUUGAAGAUCAAUUUUAAAAAUAGCUUUUGGAAUUCUCGGGUGCCAA`: “RBNS enrichment (R)” 0.713.
`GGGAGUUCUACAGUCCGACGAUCAACACAUGUUUUUAUACAAAAUAAGAACGAGGAUUUUAAUUUUUUUUAGUAUUUAUUUAUGUACUUUUAUUUUACACAGAAACACUGCCUUUUUAUUUAUAUGUACUGUUUGGAAUUCUCGGGUGCCAA` — result for “RBNS enrichment (R)”: 1.45.
For `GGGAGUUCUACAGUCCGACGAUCAAGAUGUCCUUCCAGCUUGUCAGACACUGCCUACCCUCUCCCUGAAUGAGCACUGGCUGAGGCUGUGGCCUUUGACCUUUAUGUUUCCUCCCGUCCUCUAAGACUAGCUCUGGAAUUCUCGGGUGCCAA`, “RBNS enrichment (R)” read 0.296.
Under “RBNS enrichment (R)”, `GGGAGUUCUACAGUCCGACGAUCGGAUCACGAGCCCCUACUUCCCAAAGAAUAAAUGGGCUUAGUGAUCAAGGUUCUUCAAGGGGUCUUUCUCCCUCUGAGAUAUUCAAGGCAAAUGUCUGGAUGUCGCAUUUUGGAAUUCUCGGGUGCCAA` is recorded as 0.227.

Sample 3
Target: Interferon regulatory factor 5, full length, phosphomimetic (IRF5, Homo sapiens, UniProt Q13568-2, residues 1-514, S451D/S453D/S456D/S462D)
Technique: protein-binding microarray
Molecule type: double-stranded DNA, one strand shown
Matrix: in vitro
Concentration: 940 nM top
Setting: 60-bp whole probe
With: salmon DNA 0.4 mg/ml
Reference: random background probes
Reading: higher = stronger binding
Shared flanks, not repeated: GCCTAGCACT … GTCTTGATTCGCTTGACGCTGCTG
`AAGATTTCGGGTATCGATTAGTGCTA`: “fitted relative affinity” 3.61 z-score.
Under “fitted relative affinity”, `TAGGTATCGGTCTCAGTTAGTGCTAG` is recorded as 8.97 z-score.
`TAGGACTGGACTATCTGTTAGTGCTA`: “fitted relative affinity” -0.284 z-score.
`TAGGTATCGGGTATAGGTTAGTGCTA`: “fitted relative affinity” 5.92 z-score.
`CAGTCTTCCCCATCTTACTGTGCTAG`: “fitted relative affinity” 1.23 z-score.
For `TAGGTTTCCTTTTCCTTTGGTGCTAG`, “fitted relative affinity” read 1.71 z-score.
For `TAGGTTTCTGACTGGGTTAGTGCTAG`, “fitted relative affinity” read 2.1 z-score.
`TAGGACTGGTTCTCCTTTAGTGCTAG` — result for “fitted relative affinity”: 0.158 z-score.

Sample 4
Target: CCND3, cyclin fold, Cln2 fusion (human)
Technique: yeast growth competition, sequencing
Matrix: yeast
Setting: weak parent motif
Reference: not given
Reading: higher = stronger binding
Starting sequence: viral docking peptide; KGVKRKLFAEDSS
Under “normalised enrichment score”, `A9N` is recorded as -0.12.
`V3C`: “normalised enrichment score” 0.159.
Under “normalised enrichment score”, `G2I` is recorded as 0.375.
`F8G` — result for “normalised enrichment score”: 0.641.
`K6R` — result for “normalised enrichment score”: 0.456.
For `V3G`, “normalised enrichment score” read 0.536.
`R5W`: “normalised enrichment score” -0.0827.
Under “normalised enrichment score”, `A9H` is recorded as 0.0828.
`K4E` — result for “normalised enrichment score”: 0.314.
For `E10I`, “normalised enrichment score” read 0.166.
`K4L`: “normalised enrichment score” 0.303.
For `V3P`, “normalised enrichment score” read 0.317.
`E10Y`: “normalised enrichment score” -0.102.
For `R5C`, “normalised enrichment score” read 0.0725.
`R5A L7A`: “normalised enrichment score” 0.203.
Under “normalised enrichment score”, `F8Q` is recorded as 0.159.
For `R5E`, “normalised enrichment score” read 0.205.
`K6M`: “normalised enrichment score” 0.215.
`D11R`: “normalised enrichment score” 0.277.
`A9E`: “normalised enrichment score” 0.124.
Under “normalised enrichment score”, `K4A` is recorded as 0.149.

Further values, each from its own experiment
`RNF141 RING domain (UniProt Q8WVD5)` — result for “lacZ reporter activity”: 0 (UBE2D2 UBC core domain (UniProt P62837); yeast two-hybrid; yeast; mostly zero background; reference: not given, higher = stronger interaction).
